Measured values from different studies.
Each line is one published result; not all experiments were run side by side. Several values in a cell are separate wells, animals, samples, runs or records. ± marks the error that the study gave. ≈ marks a conversion by molar mass, not a printed value.

CC(C)n1ncc2c(C(=O)NCC3(C)CNC3)cc(C3CC3)nc21
cell protection (coxsackievirus B3; CPE; Vero; 5 µM): 103% and 96.8%

CN(C)C(=O)c1cc2cnc(Nc3ccc(N4CCNCC4)cn3)nc2n1C1CCCC1
enrichment score (RNA-seq GSEA, measured: HALLMARK_UV_RESPONSE_UP gene set; MB002 tumour; concentration not given; relative to: vehicle, direction not given): 0.321

Cc1n[nH]c2ccc(-c3cc(OC[C@@H](N)Cc4ccccc4)cnc3-c3ccoc3)cc12
log2 fold change (orf19.4144 kinase Candida albicans; MIB/MS competition binding; Candida albicans cell lysate; 1 µM; relative to: DMSO, lower = stronger binding): -0.112

CC/C(=N\NC(=O)NCc1cccc(O)c1)c1ccc(O)c(C)c1O
LATS band intensity (SK-OV-3; Western blot; 20 µM, 1 h, 3D gellan gum culture, unit not given; relative to: DMSO): 1 ± 0.58

CC(C)NCC(O)c1ccc(O)c(O)c1 (centres unmarked)
sarcomere length (ventricular cardiomyocytes, C57BL/6 mouse; dose not given, 0.06 s): 1.72 µm

C[C@H](Oc1ccc(Br)cc1-c1ccon1)C(=O)O
relative refractory period (muscle velocity recovery cycles; human, tibialis anterior muscle; 200 mg once daily, multiple doses, multiple ascending dose; relative to: placebo): -0.084 ms

COc1cc(C(=O)NS(=O)(=O)c2ccccc2C)ccc1Cc1cn(C)c2ccc(NC(=O)OC3CCCC3)cc12
inhibition (native VRAC; ion current, inhibitor, whole-cell patch clamp; wild-type HCT cells; 100 µM, pH 7.4, extracellular pH): 91.9% and 98.6% and 93.4% and 91.7% and 87.3%

O=C(/C=C/C=C/C=C/C1CCCCC1)NC1=C[C@@](O)(/C=C/C=C/C=C/C(=O)NC2=C(O)CCC2=O)[C@@H]2O[C@@H]2C1=O
GI50 (HuP-T3; cell growth, CellTiter-Glo; 78 h): 19.5 µM

N#Cc1ccc2c(-c3ccncc3)c(-c3ccc(F)cc3)nn2c1
log2 fold change (orf19.4518 kinase Candida albicans; MIB/MS competition binding; Candida albicans cell lysate; 10 µM; relative to: DMSO, lower = stronger binding): 0.0862

Cn1cc(-c2ccc(-c3cncc(Cl)c3N3CCC4(CCNC4=O)CC3)cc2)cn1
log2 fold change (COLO 205; gene expression, microarray, measured: GDF15 (PDF) mRNA; concentration not given, 6 h; relative to: untreated cells): 2.66

O=C(O)CNC(=O)Cc1ccccc1
sarcomere length (ventricular cardiomyocytes, C57BL/6 mouse; dose not given, 0.708 s): 1.72 µm

C=C[C@]1(C)C[C@@H](OC(=O)CSCCN(CC)CC)[C@]2(C)[C@H](C)CC[C@]3(CCC(=O)[C@H]32)[C@@H](C)[C@@H]1O
mycoplasma count (Mycoplasma gallisepticum; infected chickens, lung; oral, 40 mg/kg): 3.32 log10 CFU/mL

Oc1ccccc1-c1n[nH]cc1-c1ccnc2ccccc12
log2 fold change (orf19.3456 Candida albicans; kinase binding, MIB/MS competition; Candida albicans lysate; 10 µM; relative to: DMSO): 0.14

CC(=O)NC[C@H]1CN(c2ccc(N3CCOCC3)c(F)c2)C(=O)O1
MIC50 (Enterococcus faecium; agar dilution; vancomycin-intermediate, 25 isolates): 2 µg/mL (≈ 5.93 µM)

NC(=O)c1cnc2[nH]ccc2c1N[C@@H]1[C@@H]2CC3C[C@H]1C[C@@](O)(C3)C2
change from baseline (flow cytometry, measured: CD8+ central memory T cells; Japanese healthy subjects, peripheral blood; oral, 100 mg twice daily, day 7): 0.38%

N#Cc1ccn2c(-c3ccncc3)c(-c3ccc(F)cc3)nc2c1
log2 fold change (orf19.6492 kinase Candida albicans; MIB/MS competition binding; Candida albicans cell lysate; 10 µM; relative to: DMSO, lower = stronger binding): 0.098

NCCCOc1cc(NC(=O)c2cc(OCc3c[nH]nn3)cc(C(=O)Nc3cc(OCCCN)c4ccccc4n3)n2)nc2ccccc12
ΔTm (Bcl2 G-quadruplex DNA; FRET melting; 1 µM, pH 7.4, added: 60 mM potassium): 14.3 ± 0.8 K

c1coc(-c2n[nH]cc2-c2ccnc3ccccc23)c1
log2 fold change (CKA2 (Candida albicans); kinase binding, MIB/MS competition; Candida albicans lysate; 10 µM; relative to: DMSO): -0.15

CCn1cc(-c2cc(Cn3ccoc3=N)cc3c2CCN([C@@H](C)c2cc(OC)ccn2)C3=O)c(C(F)(F)F)n1
EC50 (HCC70; cell growth, inhibitor; 120 h): > 30 µM

O=C(N1CCc2ccccc21)n1ccnn1
germination rate (Arabidopsis thaliana; wild type, seeds; 100 µM, after high-temperature exposure, added: 1 µM karrikin KAR2): 0%

CN[C@H](CC(C)C)C(=O)N[C@H]1C(=O)N[C@@H](CC(N)=O)C(=O)N[C@H]2C(=O)N[C@H]3C(=O)N[C@H](C(=O)N[C@H](C(=O)O)c4cc(O)cc(O)c4-c4cc3ccc4O)[C@H](O)c3ccc(c(Cl)c3)Oc3cc2cc(c3O[C@@H]2O[C@H](CO)[C@@H](O)[C@H](O)[C@H]2O[C@H]2C[C@](C)(N)[C@H](O)[C@H](C)O2)Oc2ccc(cc2Cl)[C@H]1O
ED50 (Staphylococcus; MRSE-8, mouse systemic infection; intravenous; survival): 4.06 mg/kg

COc1cnc2cccc(N3CCc4c(cc(Cn5ccnc5C)cc4-c4cn(C)nc4C(F)(F)F)C3=O)c2c1
EC50 (CA46; cell growth, inhibitor; 120 h): 3.24 µM

CSc1ccc(S(=O)(=O)NCc2ccccn2)cc1
Kd (Cyclin-dependent kinase 2, with cyclin A (CDK2, Homo sapiens, UniProt P24941)): > 100 µM

CCn1cc(-c2cc(Cn3ccnc3)cc3c2CCN([C@H](c2cc(OC)ccn2)C2CC2)C3=O)c(C(F)(F)F)n1
EC50 (HPAF-II; cell growth; 120 h): > 30 µM

c1ccc(-c2n[nH]cc2-c2ccnc3ccccc23)nc1
log2 fold change (orf19.4144 kinase Candida albicans; MIB/MS competition binding; Candida albicans cell lysate; 100 nM; relative to: DMSO, lower = stronger binding): 1.32

O=C(Cc1ccccc1[N+](=O)[O-])Nc1ccccc1C(=O)N1CCOCC1
Kd (Cyclin-dependent kinase 2 (CDK2, Homo sapiens, UniProt P24941); binding): > 100 µM

Repeated from above:
c1ccc(-c2n[nH]cc2-c2ccnc3ccccc23)nc1
log2 fold change (orf19.4144 kinase Candida albicans; MIB/MS competition binding; Candida albicans cell lysate; 100 nM; relative to: DMSO, lower = stronger binding): 1.32
